Results gathered from unrelated publications.
Every numbered part comes from another study and shows a few of its results, in no order. Changes are numbered by the printed parent chain.

Study 1
Target: UBE2E2 UBC core domain (UniProt Q96LR5)
Chain of UniProt Q96LR5 (whole entry, looked up): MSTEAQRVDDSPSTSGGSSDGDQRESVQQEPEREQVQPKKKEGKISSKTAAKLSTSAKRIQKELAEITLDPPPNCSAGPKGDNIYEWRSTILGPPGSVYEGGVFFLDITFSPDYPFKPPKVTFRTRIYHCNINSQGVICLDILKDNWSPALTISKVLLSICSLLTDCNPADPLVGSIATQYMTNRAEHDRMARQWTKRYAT
Technique: yeast two-hybrid
Medium: yeast
Notes: mostly zero background
Relative to: not given
Direction: higher = stronger interaction
B1: ANKIB1 RING domain (UniProt Q9P2G1); chain LSPGDLDTSLCDICMCSISVFEDPVDMPCGHDFCRGCWESFLNLKIQEGEAHNIFCPAYDCFQLVPVDIIE
B2: PHF7 RING domain (UniProt Q9BWX1); chain IQHGHVGEESCILCCEDLSQQSVENIQSPCCSQAIYHRKCIQKYAHTSAKHFFKCPQCNNRKEFPQEML
B3: PEX2 RING domain (UniProt P28328); chain DNTLATSGKECALCGEWPTMPHTIGCEHIFCYFCAKSSFLFDVYFTCPKCGTEVHSLQPLK
B4: RNF43 RING domain (UniProt Q68DV7); chain SGSSCSSAPVCAICLEEFSEGQELRVISCLHEFHRNCVDPWLHQHRTCPLCMFNITEGDSFS
B5: RNF32 RING domain (UniProt Q9H0A6); chain SLLQGDSVQPCPICKEEFELRPQVLLSCSHVFHKACLQAFEKFTNKKTCPLCRKNQYQTRVIH
B6: TRIM3 RING domain (UniProt O75382); chain VQPMDKQFLVCSICLDRYQCPKVLPCLHTFCERCLQNYIPAQSLTLSCPVCRQTSILPEQGV
For `B1 (ANKIB1 RING domain)`, “lacZ reporter activity” read 0.
`B2 (PHF7 RING domain)` — result for “lacZ reporter activity”: 0.
`MANWVFCNRCFQPPHRTSCFSLTNCGHVYCDACLGKGKKNECLICKAPCRTVLLSK (RNF212 RING domain (UniProt Q495C1))` — result for “lacZ reporter activity”: 0.
`KIKDLNEHIVCCLCAGYFVDATTITECLHTFCKSCIVKYLQTSKYCPMCNIKIHETQPLL (PCGF1 RING domain (UniProt Q9BSM1))`: “lacZ reporter activity” 0.
`B3 (PEX2 RING domain)`: “lacZ reporter activity” 0.
`SYEDKSNDFVCPICFDMIEEAYMTKCGHSFCYKCIHQSLEDNNRCPKCNYVVDNIDHLY (COP1 RING domain (UniProt Q8NHY2))` — result for “lacZ reporter activity”: 0.
`B4 (RNF43 RING domain)` — result for “lacZ reporter activity”: 0.
Under “lacZ reporter activity”, `B5 (RNF32 RING domain)` is recorded as 0.
`B6 (TRIM3 RING domain)`: “lacZ reporter activity” 0.

Study 2
Target: CCNF, cyclin fold, Cln2 fusion (human)
Technique: yeast growth competition, sequencing
Medium: yeast
Notes: strong parent motif
Relative to: not given
Direction: higher = stronger binding
Parent: ANKRD17 docking peptide (human); PSVRRQLFVTVVK; partner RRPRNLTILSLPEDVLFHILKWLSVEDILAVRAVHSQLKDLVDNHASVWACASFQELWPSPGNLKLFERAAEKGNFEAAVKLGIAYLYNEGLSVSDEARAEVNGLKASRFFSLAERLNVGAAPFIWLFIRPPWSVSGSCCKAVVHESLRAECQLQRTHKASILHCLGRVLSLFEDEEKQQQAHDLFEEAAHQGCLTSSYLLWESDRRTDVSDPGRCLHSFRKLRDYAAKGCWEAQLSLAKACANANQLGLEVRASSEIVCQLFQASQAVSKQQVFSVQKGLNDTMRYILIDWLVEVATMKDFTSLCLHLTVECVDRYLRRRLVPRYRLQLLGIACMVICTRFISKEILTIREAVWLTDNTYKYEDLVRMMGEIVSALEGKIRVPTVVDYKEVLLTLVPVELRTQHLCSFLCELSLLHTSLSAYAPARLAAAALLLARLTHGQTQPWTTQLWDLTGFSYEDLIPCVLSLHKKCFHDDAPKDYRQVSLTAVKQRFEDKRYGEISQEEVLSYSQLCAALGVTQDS
Under “normalised enrichment score”, `V9A` is recorded as 8.58.
`R5A`: “normalised enrichment score” 2.94.
For `F8A`, “normalised enrichment score” read 1.63.
`V3A` — result for “normalised enrichment score”: 8.47.
`V12A` — result for “normalised enrichment score”: 8.95.
Under “normalised enrichment score”, `R5K F8L` is recorded as 1.88.
For `P1A`, “normalised enrichment score” read 8.02.

Study 3
Target: ABI1, truncated, D143A, DHFR fusion (Arabidopsis thaliana)
Technique: DHFR PCA, deep sequencing
Medium: yeast
Notes: methotrexate growth selection, single substitutions
Together with: (+)-ABA 0 µM
Relative to: wild-type fitted maximum
Direction: higher = stronger binding
Parent: PYL1, truncated, DHFR fusion (Arabidopsis thaliana); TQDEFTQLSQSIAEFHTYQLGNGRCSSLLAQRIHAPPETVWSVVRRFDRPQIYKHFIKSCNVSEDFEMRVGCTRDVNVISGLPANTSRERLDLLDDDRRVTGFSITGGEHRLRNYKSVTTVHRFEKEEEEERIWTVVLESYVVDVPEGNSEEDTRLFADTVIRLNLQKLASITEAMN
For `I133A`, “relative binding score” read 31.8%.
For `C25I`, “relative binding score” read 58.4%.
`S27I` — result for “relative binding score”: -1.99%.
For `N149H`, “relative binding score” read 33.8%.
`L28I` — result for “relative binding score”: 65.3%.
Under “relative binding score”, `P146A` is recorded as 22.7%.
`K126M`: “relative binding score” 51%.
`C60K` — result for “relative binding score”: -11.7%.
`F124E` — result for “relative binding score”: 7.71%.
`T154C` — result for “relative binding score”: -5.07%.
For `R99S`, “relative binding score” read -1.42%.
`T1M`: “relative binding score” 27.6%.
For `H110T`, “relative binding score” read 44.8%.
`I33N` — result for “relative binding score”: -1.5%.
Under “relative binding score”, `T119N` is recorded as -1.33%.
For `K58Y`, “relative binding score” read 2.75%.
`N85G` — result for “relative binding score”: 24.1%.
`N61K` — result for “relative binding score”: 52.6%.
For `F56R`, “relative binding score” read -1.02%.
Under “relative binding score”, `F56P` is recorded as 1.61%.
Under “relative binding score”, `T86N` is recorded as 11.6%.
`H16N`: “relative binding score” 3.72%.
For `A170S`, “relative binding score” read -4.22%.

Study 4
Target: Interferon regulatory factor 7, full length, phosphomimetic (IRF7, Homo sapiens, UniProt Q92985, residues 1-503, S101K/S471D/S472D/S475D/S476D/S477D/S483D/S484D/S487D)
Technique: protein-binding microarray
Molecule type: double-stranded DNA, one strand shown
Medium: in vitro
Tested at: 250 nM
Notes: 60-bp whole probe
Together with: salmon DNA 0.4 mg/ml
Relative to: random background probes
Direction: higher = stronger binding
All sequences stand within: GCCTAGCAC … GTCTTGATTCGCTTGACGCTGCTG
Residues (chain): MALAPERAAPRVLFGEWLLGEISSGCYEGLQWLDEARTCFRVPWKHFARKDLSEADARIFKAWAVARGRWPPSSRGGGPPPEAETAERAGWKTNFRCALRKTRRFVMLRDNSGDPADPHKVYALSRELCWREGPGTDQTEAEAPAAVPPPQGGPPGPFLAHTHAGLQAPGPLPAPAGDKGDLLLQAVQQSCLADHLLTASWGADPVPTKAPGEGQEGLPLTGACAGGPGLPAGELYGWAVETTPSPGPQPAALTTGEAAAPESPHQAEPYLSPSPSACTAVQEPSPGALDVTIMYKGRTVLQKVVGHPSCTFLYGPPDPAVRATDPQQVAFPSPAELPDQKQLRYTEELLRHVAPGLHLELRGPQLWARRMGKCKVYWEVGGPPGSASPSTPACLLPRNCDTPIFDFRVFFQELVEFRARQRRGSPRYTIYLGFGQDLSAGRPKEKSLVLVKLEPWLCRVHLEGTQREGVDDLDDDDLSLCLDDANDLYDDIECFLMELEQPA
`CTCCCTTGAGGTTTTCTCTGGGTGCTA` gave a log fluorescence of -0.698 z-score.
With `TTACATATCAGTTTCGATTAGTGCTAG` the log fluorescence was 8.68 z-score.
`TTAGCTTTCGACTTTCGGTTAGTGCTA` gave a log fluorescence of 2.96 z-score.
`AGTTGTTTTAAATTCTAATTGTGCTAG` gave a log fluorescence of 0.382 z-score.
`TCATTATGCTCTTTCTAACTGTGCTAG` has a log fluorescence of 1.04 z-score.
`TTAGGTCTCAGACTGGATTAGTGCTAG` has a log fluorescence of -0.216 z-score.
`TTAGGTATCCACACTGGGTTAGTGCTA` has a log fluorescence of -0.413 z-score.
`GTAGATCTCAGTCTCGATTAGTGCTAG` has a log fluorescence of 1.13 z-score.
For `TAGAAATTTTTTTTCTAACTGTGCTAG`, the log fluorescence was 0.0292 z-score.
`AACGGTATCGGGACTGGGGACGTGCTA` has a log fluorescence of -0.0606 z-score.
`TCATTTTGGTTTCTGGTACTGTGCTAG` has a log fluorescence of 2.49 z-score.
`CCCTCCCTAATTCTGATTGGGTGCTAG` gave a log fluorescence of 0.263 z-score.
`GACTGTATCCTTTTCCTGACGTGCTAG` has a log fluorescence of 0.795 z-score.
For `TTTGATTTCAGTCTCGATTAGTGCTAG`, the log fluorescence was 1.64 z-score.
`TATGTTGTCCAGGCTGGTCTCGTGCTA` has a log fluorescence of 0.484 z-score.
For `TCATCTCTCCATGTGTTACTGTGCTAG`, the log fluorescence was 0.97 z-score.
With `CCTCATCTTCCTCTGCCACAGTGCTAG` the log fluorescence was 0.902 z-score.
The log fluorescence of `TCATTTTTTTTTTTGGAACTGTGCTAG` is reported as 0.741 z-score.
For `TTTTCTCTTATTCTAACAGCGTGCTAG`, the log fluorescence was 2.66 z-score.

Some of these lines once more (study 3):
`T1M`: “relative binding score” 27.6%.
For `H110T`, “relative binding score” read 44.8%.
`I33N` — result for “relative binding score”: -1.5%.
Under “relative binding score”, `T119N` is recorded as -1.33%.
For `K58Y`, “relative binding score” read 2.75%.
`N85G` — result for “relative binding score”: 24.1%.
`N61K` — result for “relative binding score”: 52.6%.
For `F56R`, “relative binding score” read -1.02%.
Under “relative binding score”, `F56P` is recorded as 1.61%.
